# Published values pooled from the literature.
# A part holds a random share of what one study measured.

# Set 1 — method: RNA Bind-n-Seq; form: RNA; sample: in vitro; tested at: 365 nM; relative to: no-protein control; direction: higher = stronger binding
# Target: RNA binding protein fox-1 homolog 2, RRM domain, GST-SBP tag (RBFOX2, Homo sapiens, UniProt O43251-10, residues 100-194)
# Setting: natural RNA segment, single round, ends assumed
# Residues (chain): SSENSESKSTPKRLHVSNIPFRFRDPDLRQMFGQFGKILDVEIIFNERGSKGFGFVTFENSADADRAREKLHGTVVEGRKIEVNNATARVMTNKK
Oligonucleotide,RBNS enrichment (R)
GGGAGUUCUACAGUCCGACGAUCAUCACAGUGAUUUGGUCCCAUUGGAGCCUUUGGCCCCAGGGGCACUCACUUUUUCUCAUCAGAGUCUCUCCUUGCCACAGCCCGGGUCACCAUCGGUUCCCUGGCCUCCCUGGAAUUCUCGGGUGCCAA,0.179
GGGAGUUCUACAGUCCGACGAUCUUAGGACCAAAUUGUUAGAAAGCAUCAGGAUGACCAGUUAUCUCGAGUAGAUUUUCUUGGAUUUCAGAACAUCUAGCAUGACUCUGAAGGAUACCACAUGUUUUAUAUAUUGGAAUUCUCGGGUGCCAA,1.21
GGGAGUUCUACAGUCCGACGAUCAGAAGUUGAAGCUCUUUAAGCCAUUUUAUUUAUUUUGUUUUUUACAGAAUUUGUGCUUUGGUUUGCCCUGCGCAGCCUUGGAGCAUCAUAAGCCUGGCUGGUGGGCAUAGUGGAAUUCUCGGGUGCCAA,0.38
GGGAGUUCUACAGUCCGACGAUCCUGACACAAAGACGGGAAACCCAGUCGGCCUCUAGUUUUCUGCUGCUCUCAGGCAGCACAUCUUGCAAACAGUUUGGAGAAGGAGGCUGUUUUUGUUGAAUCGAGUUCUCUGGAAUUCUCGGGUGCCAA,0.465
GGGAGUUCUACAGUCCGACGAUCAUGAAGAACACAGGGAUAAAGCAAAGGCCAUCAUGCCGCAGACUGGAGCCACCUGGAAGCCACUCCAAUUUGGUGGCACAGGACAGGUUUCCAAGAUGUCACGAGAAAAGUGGAAUUCUCGGGUGCCAA,0.485
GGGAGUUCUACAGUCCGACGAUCCCACUUGUUAGAGGUAGGGCUAUGAGGAAGCAAGGAUGGGAGGUGGGGUUGAGGUUUGGGAAGCAGGCAGCAAGCGUUACCUUUGCAGAAGACUCGUGUCUUGCUGUAGAUGGAAUUCUCGGGUGCCAA,0.914
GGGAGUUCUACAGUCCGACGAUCUCUUUUUCUUUUUUUUUGGAGGGGGGAGGCAGGGUCUUGCUCUGUCCCUCAGGCUGGAGCUUAGCUCAGUGCAGCCUCCAACUCCUGGGCUCAAGCAAUCCUCCCACUUUUGGAAUUCUCGGGUGCCAA,0.26
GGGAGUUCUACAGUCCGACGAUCGACAGCACAGAGCCGCGGCGUACACACUGACGUACCCACCACCAACAGAUUGAGGCACUGACGCAGCCAGCUUAGCCCAGCAUUACUGUCUCUGUUGUGAGCUUGCUCUUUGGAAUUCUCGGGUGCCAA,0.416

# Set 2 — method: universal PBM; form: double-stranded DNA, one strand shown; sample: in vitro; tested at: not given; direction: higher = stronger binding
# Target: Sal-like protein 4, full length isoform B (SALL4, Homo sapiens, UniProt Q9UJQ4-2, residues 1-616)
# Setting: 8-mer, flanks averaged, mean of replicates
# Construct (chain): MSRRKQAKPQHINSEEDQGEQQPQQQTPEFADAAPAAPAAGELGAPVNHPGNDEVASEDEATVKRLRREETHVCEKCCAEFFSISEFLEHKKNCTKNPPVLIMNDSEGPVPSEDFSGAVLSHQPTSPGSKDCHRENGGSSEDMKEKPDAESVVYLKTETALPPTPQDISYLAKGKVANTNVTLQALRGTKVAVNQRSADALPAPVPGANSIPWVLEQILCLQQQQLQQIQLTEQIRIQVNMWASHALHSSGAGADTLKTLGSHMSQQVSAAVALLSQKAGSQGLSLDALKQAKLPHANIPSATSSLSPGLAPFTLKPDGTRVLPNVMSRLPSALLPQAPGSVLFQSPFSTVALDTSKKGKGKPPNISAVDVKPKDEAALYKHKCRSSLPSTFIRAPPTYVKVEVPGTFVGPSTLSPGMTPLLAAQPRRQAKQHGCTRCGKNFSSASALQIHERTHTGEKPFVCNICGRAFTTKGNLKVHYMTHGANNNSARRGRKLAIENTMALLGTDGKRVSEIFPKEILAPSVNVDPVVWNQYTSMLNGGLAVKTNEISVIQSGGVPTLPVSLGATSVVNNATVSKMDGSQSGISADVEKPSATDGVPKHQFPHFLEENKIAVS
Oligonucleotide,E-score
CCACTGGC,-0.287
CAAAATTC,0.293
TACGGCTA,-0.00286
CATCTAAC,0.0523
CTTAAATA,0.177
ACCGCAGG,-0.148
CCGAGTCG,-0.312
AGGAGAGG,-0.12
CCTGACCA,0.133
AGAAACCC,0.0054
GCGTTATA,0.174
AAACGTAA,0.22
CACGACGA,-0.0995
ATTAGTGG,0.0768
GCTATAAA,0.296
GATTACCA,-0.13
ATTAGGGA,0.195
ACCCCCCC,-0.309
ATTTGGAG,-0.0172
CAATGACG,-0.0249
CGGCAAAC,-0.205
CGGAACTA,-0.0664
ATCGTCTG,-0.145
AAGCTATG,0.0995
AATAGTTA,0.259

# Set 3 — method: protein binding microarray; form: double-stranded DNA, one strand shown; sample: in vitro; tested at: not given; relative to: not given; direction: higher = stronger binding
# Target: Histone acetyltransferase KAT6A, winged helix 1, GST fusion (KAT6A, Homo sapiens, UniProt Q92794, residues 1-85)
# Setting: 8-mer, flanks averaged, mean of 2 arrays, mostly near background
# Target sequence (chain): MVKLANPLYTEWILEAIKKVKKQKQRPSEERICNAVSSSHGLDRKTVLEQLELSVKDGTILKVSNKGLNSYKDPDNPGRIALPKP
Oligonucleotide,E-score
AATTGGGC,-0.227
ACGTTCAT,-0.134
CGAGGGGC,0.0111
TCGGAAAA,0.147
GCGGGATA,0.364
GGAGGTAC,0.00507
ATCCACCC,0.0561
GCCTGACC,-0.054
CTTTAGGC,0.0491
AACGAAGC,-0.013
CTCTGCTA,-0.0791
AAGCCTTC,-0.145
ATCGTCTC,-0.0557
CCGACGGC,0.482
CGCATCAC,0.0798
ATCCCCAT,-0.115

# Set 4 — method: aptamer microarray, sandwich; form: DNA with 2'F-ANA; sample: in vitro; tested at: 200 nM; added: Cy3 exosite-II aptamer, 400 nM; direction: higher = stronger binding; oligonucleotide: GGTTGGTGTGGTTGG
# Target: Prothrombin, mature alpha-thrombin (F2, Homo sapiens, UniProt P00734)
# Setting: whole 15-mer aptamer, many near background
Modification,mean fluorescence intensity [a.u.]
2'F-ANA at 1 2 5 6 8 9 10 11 13 14,70
2'F-ANA at 1 4 5 6 7 8 12 13,82.3
2'F-ANA at 1 3 4 5 6 8 9 11 13 14,46.5
2'F-ANA at 2 5 7 8 13 15,59.8
2'F-ANA at 1 2 5 6 7 8 11 14,54
2'F-ANA at 1 3 5 6 7 8 9 12 14,52.9
2'F-ANA at 1 2 4 8 9 12 13,185
2'F-ANA at 3 5 6 7 10 11,55.5
2'F-ANA at 1 3 4 7 8 12 13,378
2'F-ANA at 1 5 6 8 13 14,45
2'F-ANA at 2 3 4 5 8 9 10 11 12 13 14 15,58.8
2'F-ANA at 2 6 7 8 10 12 14,104
2'F-ANA at 2 3 4 5 6 7 11 12 13 14 15,52.1
2'F-ANA at 1 2 7 8 9 10 11,53.7
2'F-ANA at 1 2 3 5 6 7 9 11 12 13 14 15,49.8
2'F-ANA at 1 3 4 8 13 15,210
2'F-ANA at 2 4 7 9 10 11 12 13,102
2'F-ANA at 1 2 3 7 10 11 12,82.4
2'F-ANA at 1 3 5 12 13 15,94.6
2'F-ANA at 5 6 7 10 12 13,46.2
2'F-ANA at 1 2 3 4 5 6 7 8 9 13 14,49.9

# For quick reference, copied from above (set 2):
Oligonucleotide,E-score
ATTAGGGA,0.195
ACCCCCCC,-0.309
ATTTGGAG,-0.0172
CAATGACG,-0.0249
CGGCAAAC,-0.205
CGGAACTA,-0.0664
ATCGTCTG,-0.145
